Assay results collected from several papers.
Every numbered part comes from another study and shows a few of its results, in no order. Substitutions count along the parent as printed.

Series 1
Target: Fragile X messenger ribonucleoprotein 1, C-terminal low-complexity region (Fmr1, Mus musculus, UniProt P35922)
Technique: RNA Bind-n-Seq
Form: RNA
Matrix: in vitro
Tested at: 200 nM
Notes: whole 134-nt RNA, ends assumed
With: 150 mM LiCl
Baseline: input library
Direction: higher = stronger binding
All molecules: 7-deaza-guanosine replaces G
Constant ends, left off below: GGGAGUUCUACAGUCCGACGAUC … UGGAAUUCUCGGGUGUCAAGG
| Strand | log2 enrichment |
| --- | --- |
| CUGUGCUACACAUCGUAUGUACCGAAUCGGGGAAAAAAAGGGGUUUUUGGGGAAAAAGGGGAAAGUAUUAUGUUACGCCGUUCGGAUCUG | -0.572 |
| AGUCCUGUGCUACACAUCGUAUGUACCGAAUCGGGUUUUUUUGGGAAAGGGAAAGGGAAAGUAUUAUGUUACGCCGUUCGGAUCUGCACU | -1.62 |
| CCUGUGCUACACAUCGUAUGUACCGAAUCGGGGUUUUUUUGGGGUGGGGAAAAAAAGGGGAAAGUAUUAUGUUACGCCGUUCGGAUCUGC | -1.3 |
| CUGUGCUACACAUCGUAUGUACCGAAUCGGUUUUUUUGGGGUUUUUUUGGGGUUUUUUUGGGAAAGUAUUAUGUUACGCCGUUCGGAUCU | 1.19 |
| CCUGUGCUACACAUCGUAUGUACCGAAUCGGGGCCCCCCGGGCCCCCCGGGGCCCCCCGGGAAAGUAUUAUGUUACGCCGUUCGGAUCUG | -2.33 |
| CUCAAGUCCUGUGCUACACAUCGUAUGUACCGAAUCGGGGCGGCGGGGCGGGGAAAGUAUUAUGUUACGCCGUUCGGAUCUGCACUUCCA | -1.15 |
| ACCAUGCAGGUGGGCAUCUUUGGGAAGUGGCGCAAGGGGGGGAUAGGGAGGGGGGUAACACUUUGGGAACAGGUGGUCCCAGGUCGUUUC | 1.47 |
| UGGCCCUGGUGGCAUGCGGAGAGGAAGAGGUGGCCUCAUGGAUCGUGGUGGUCCCGGUGGAAUGUUCAGAGGUGGCCGUGGUGGAGACAG | -0.152 |
| AGUCCUGUGCUACACAUCGUAUGUACCGAAUCGGGUUUUUGGGAAAAAAAGGGAGGGAAAGUAUUAUGUUACGCCGUUCGGAUCUGCACU | -2.34 |
| AAGUCCUGUGCUACACAUCGUAUGUACCGAAUCGGGCCCCGGCCCCGGCCCCGGGGAAAGUAUUAUGUUACGCCGUUCGGAUCUGCACUU | -1.39 |
| CUCAAGUCCUGUGCUACACAUCGUAUGUACCGAAUCGGCCGGGGCCGGCCGGGGAAAGUAUUAUGUUACGCCGUUCGGAUCUGCACUUCC | 0.0696 |

Series 2
Target: ABI1, truncated, D143A, DHFR fusion (Arabidopsis thaliana)
Technique: DHFR PCA, deep sequencing
Matrix: yeast
Notes: methotrexate growth selection, single substitutions
With: (+)-ABA 0.032 µM
Baseline: wild-type fitted maximum
Direction: higher = stronger binding
Parent: PYL1, truncated, DHFR fusion (Arabidopsis thaliana); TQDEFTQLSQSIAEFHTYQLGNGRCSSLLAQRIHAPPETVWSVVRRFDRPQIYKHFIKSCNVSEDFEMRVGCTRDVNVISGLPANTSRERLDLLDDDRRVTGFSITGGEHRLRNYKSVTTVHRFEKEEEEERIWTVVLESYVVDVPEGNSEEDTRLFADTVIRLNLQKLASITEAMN; partner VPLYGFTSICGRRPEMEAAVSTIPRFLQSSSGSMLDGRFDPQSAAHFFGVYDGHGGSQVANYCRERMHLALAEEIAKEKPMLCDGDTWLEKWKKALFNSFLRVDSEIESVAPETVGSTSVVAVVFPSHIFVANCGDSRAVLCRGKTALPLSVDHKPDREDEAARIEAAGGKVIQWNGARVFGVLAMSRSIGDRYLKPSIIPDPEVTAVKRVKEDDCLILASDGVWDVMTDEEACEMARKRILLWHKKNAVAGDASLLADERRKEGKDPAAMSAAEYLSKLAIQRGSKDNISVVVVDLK
| Substitution | relative binding score [%] |
| --- | --- |
| R113N | 13.7 |
| E64W | -0.434 |
| T173N | 3.57 |
| I79Q | 13.2 |
| A175S | 19.2 |
| S9C | 9.35 |
| L94N | 7.4 |

Series 3
Target: Histone acetyltransferase KAT6A, both winged helices, GST fusion (KAT6A, Homo sapiens, UniProt Q92794, residues 1-181)
Technique: protein binding microarray
Form: double-stranded DNA, one strand shown
Matrix: in vitro
Tested at: not given
Notes: 8-mer, flanks averaged, mean of 2 arrays, mostly near background
Baseline: not given
Direction: higher = stronger binding
Residues (chain): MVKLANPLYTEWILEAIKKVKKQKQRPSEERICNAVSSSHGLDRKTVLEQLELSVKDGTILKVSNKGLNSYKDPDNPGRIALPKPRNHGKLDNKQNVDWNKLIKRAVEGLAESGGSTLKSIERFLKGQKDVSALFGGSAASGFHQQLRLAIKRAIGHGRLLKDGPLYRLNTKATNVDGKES
| Strand | E-score |
| --- | --- |
| GAGAGGCA | -0.2 |
| CCACACGA | -0.114 |
| AAGAGGCC | -0.099 |
| AATAGAAG | -0.112 |
| ATTTCGCC | -0.0405 |
| GACCGGTC | 0.2 |
| GTTGATGA | -0.114 |
| CACAAAGC | 0.0501 |
| GATACACA | -0.123 |

Single results of other studies
| Molecule | target or system | assay | system | conditions | scale | endpoint | value |
| --- | --- | --- | --- | --- | --- | --- | --- |
| SDSTVTKLDFDLEP | Saccharomyces cerevisiae | binding, competitive growth deep sequencing | peptide, cyclin D3-Cln2 fusion strain | concentration not given, tiling library, Cln2 subtracted | direction not given | growth enrichment score | 0.306 |
| PhoQ, residues 284 288 289 292 302 303 TLMATV | PhoP, residues 12 14 15 18 19 SMASL (Escherichia coli, UniProt P23836) | Sort-seq, measured: YFP reporter | E. coli | PhoQ-PhoP variant library, with: 10 µM Mg2+ | baseline: high Mg2+ state, higher = stronger signaling | fold induction | 21.1 |

For quick reference, copied from above (series 1):
| Strand | log2 enrichment |
| --- | --- |
| AAGUCCUGUGCUACACAUCGUAUGUACCGAAUCGGGCCCCGGCCCCGGCCCCGGGGAAAGUAUUAUGUUACGCCGUUCGGAUCUGCACUU | -1.39 |
| CUGUGCUACACAUCGUAUGUACCGAAUCGGUUUUUUUGGGGUUUUUUUGGGGUUUUUUUGGGAAAGUAUUAUGUUACGCCGUUCGGAUCU | 1.19 |
